Experimental data of several laboratories.
Lines come from different studies, so protocols differ. Several values in a cell are separate wells, animals, samples, runs or records. ± marks the error that the study gave.
PFF0160c E182D: Dihydroorotate dehydrogenase (quinone), mitochondrial (PFF0160c, Plasmodium falciparum, UniProt Q08210, E182D)
ACHE: Acetylcholinesterase (ACHE, Homo sapiens, UniProt P22303)
UniProt P27361, sequence (whole entry, looked up): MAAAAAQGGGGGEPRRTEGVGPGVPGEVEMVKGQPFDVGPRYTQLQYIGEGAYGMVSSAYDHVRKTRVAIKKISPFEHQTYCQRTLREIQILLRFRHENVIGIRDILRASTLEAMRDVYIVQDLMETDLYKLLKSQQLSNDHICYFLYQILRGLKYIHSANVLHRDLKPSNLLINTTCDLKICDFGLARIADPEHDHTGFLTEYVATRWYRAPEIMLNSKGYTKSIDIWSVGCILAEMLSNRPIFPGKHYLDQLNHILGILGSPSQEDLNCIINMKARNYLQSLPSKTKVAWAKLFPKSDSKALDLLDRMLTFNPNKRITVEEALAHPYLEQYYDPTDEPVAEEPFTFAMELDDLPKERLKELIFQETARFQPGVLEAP
UniProt P22303, sequence (whole entry, looked up): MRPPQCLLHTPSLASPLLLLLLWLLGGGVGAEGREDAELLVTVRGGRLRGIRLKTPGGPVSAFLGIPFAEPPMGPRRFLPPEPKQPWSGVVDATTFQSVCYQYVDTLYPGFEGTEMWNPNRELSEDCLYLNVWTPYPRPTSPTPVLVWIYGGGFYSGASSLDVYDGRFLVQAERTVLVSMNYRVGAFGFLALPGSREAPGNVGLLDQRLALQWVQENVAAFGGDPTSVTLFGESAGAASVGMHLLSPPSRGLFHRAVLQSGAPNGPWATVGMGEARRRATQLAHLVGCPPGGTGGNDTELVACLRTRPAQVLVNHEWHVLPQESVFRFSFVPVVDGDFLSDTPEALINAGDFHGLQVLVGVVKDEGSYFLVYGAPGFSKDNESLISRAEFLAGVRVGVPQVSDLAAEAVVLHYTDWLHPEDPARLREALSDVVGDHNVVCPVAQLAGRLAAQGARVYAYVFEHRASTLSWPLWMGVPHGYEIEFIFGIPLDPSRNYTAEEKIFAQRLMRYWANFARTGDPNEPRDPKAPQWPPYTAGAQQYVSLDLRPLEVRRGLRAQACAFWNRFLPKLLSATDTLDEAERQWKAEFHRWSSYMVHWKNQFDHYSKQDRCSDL
UniProt P50406, sequence (whole entry, looked up): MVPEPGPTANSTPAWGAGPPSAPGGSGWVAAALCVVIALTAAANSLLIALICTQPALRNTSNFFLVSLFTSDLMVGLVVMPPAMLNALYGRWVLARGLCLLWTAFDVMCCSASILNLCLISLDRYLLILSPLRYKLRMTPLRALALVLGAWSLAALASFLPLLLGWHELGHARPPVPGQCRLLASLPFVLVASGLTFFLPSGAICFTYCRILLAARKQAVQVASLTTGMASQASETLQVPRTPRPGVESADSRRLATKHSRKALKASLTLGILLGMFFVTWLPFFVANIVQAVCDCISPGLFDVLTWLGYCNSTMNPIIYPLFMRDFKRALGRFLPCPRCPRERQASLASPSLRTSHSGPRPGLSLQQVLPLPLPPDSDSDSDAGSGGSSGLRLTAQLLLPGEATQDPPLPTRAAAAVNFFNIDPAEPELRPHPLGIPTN
UniProt Q15831, sequence (whole entry, looked up): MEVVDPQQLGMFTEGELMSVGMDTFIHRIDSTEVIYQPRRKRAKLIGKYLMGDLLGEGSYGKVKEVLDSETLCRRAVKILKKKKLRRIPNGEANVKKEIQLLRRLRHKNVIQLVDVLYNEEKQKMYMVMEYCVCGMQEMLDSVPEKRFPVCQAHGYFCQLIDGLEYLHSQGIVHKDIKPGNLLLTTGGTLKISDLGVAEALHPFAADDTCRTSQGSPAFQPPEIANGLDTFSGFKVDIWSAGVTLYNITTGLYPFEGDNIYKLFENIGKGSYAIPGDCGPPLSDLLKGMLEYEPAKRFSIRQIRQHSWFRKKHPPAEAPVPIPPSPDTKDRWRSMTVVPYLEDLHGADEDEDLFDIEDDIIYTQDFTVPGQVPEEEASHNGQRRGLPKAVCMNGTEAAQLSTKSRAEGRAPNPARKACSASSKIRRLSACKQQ
UniProt Q96RI1, sequence (whole entry, looked up): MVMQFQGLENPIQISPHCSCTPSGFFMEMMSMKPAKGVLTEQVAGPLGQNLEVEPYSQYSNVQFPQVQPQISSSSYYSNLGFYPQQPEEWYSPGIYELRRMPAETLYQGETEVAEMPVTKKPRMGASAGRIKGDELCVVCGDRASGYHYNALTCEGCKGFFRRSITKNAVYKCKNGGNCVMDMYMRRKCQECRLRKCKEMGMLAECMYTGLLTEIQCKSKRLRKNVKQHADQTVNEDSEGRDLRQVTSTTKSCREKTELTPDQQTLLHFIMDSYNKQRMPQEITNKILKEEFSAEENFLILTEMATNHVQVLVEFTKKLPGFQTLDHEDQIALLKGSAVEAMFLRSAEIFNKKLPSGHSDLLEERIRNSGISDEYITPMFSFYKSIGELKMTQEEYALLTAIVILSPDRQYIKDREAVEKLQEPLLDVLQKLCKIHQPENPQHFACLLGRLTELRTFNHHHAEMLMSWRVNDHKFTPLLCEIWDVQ
UniProt Q9H3Y6, sequence (whole entry, looked up): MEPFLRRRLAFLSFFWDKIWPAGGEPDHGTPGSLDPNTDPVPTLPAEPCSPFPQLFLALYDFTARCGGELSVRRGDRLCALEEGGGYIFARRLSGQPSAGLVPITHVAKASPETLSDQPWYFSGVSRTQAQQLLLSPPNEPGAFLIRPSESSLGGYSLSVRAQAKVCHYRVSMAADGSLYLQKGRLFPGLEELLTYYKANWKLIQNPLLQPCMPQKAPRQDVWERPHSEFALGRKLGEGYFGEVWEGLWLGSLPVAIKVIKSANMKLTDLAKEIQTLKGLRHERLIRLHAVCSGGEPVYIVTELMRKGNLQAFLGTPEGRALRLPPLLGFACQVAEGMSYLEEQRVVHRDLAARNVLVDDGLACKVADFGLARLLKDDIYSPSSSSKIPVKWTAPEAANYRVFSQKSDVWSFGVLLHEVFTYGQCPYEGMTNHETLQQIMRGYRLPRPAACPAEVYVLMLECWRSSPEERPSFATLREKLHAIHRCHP
UniProt P49116, sequence (whole entry, looked up): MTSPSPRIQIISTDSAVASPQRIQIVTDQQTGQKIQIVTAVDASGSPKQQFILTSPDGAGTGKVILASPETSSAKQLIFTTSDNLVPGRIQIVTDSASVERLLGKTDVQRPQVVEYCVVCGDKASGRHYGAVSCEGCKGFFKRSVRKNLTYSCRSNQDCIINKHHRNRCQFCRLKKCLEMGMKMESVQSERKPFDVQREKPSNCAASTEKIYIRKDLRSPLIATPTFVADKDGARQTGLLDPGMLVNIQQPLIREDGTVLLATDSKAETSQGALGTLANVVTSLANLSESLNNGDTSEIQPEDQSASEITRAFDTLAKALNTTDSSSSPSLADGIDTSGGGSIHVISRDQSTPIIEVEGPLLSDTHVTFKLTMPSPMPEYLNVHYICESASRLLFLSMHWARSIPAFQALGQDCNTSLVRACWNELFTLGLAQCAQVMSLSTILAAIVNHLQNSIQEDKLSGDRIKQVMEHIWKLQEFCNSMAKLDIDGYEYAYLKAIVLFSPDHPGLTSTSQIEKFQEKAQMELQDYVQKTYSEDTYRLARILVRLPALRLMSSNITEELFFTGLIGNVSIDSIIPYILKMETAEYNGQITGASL
UniProt P18089, sequence (whole entry, looked up): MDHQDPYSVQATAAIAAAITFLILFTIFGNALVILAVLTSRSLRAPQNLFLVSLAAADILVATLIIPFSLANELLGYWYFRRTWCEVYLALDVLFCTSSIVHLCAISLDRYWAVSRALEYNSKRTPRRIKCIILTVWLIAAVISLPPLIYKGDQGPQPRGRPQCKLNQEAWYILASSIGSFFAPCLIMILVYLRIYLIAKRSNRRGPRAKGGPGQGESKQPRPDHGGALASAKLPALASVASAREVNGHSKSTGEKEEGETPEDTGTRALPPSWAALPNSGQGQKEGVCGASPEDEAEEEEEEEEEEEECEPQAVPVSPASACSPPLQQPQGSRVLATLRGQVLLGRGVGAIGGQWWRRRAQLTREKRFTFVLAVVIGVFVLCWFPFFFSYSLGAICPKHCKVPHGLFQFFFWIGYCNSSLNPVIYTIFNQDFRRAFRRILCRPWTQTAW
UniProt Q6U736, sequence (whole entry, looked up): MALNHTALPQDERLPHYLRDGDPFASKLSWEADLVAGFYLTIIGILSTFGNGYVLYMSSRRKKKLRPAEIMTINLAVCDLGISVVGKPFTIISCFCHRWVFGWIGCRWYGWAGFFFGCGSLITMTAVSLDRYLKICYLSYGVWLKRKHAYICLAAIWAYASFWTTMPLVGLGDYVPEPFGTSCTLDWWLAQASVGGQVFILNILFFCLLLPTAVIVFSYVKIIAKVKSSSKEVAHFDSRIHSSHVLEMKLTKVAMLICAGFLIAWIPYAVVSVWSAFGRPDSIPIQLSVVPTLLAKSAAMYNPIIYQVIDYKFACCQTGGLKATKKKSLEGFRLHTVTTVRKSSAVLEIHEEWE
UniProt P49760, sequence (whole entry, looked up): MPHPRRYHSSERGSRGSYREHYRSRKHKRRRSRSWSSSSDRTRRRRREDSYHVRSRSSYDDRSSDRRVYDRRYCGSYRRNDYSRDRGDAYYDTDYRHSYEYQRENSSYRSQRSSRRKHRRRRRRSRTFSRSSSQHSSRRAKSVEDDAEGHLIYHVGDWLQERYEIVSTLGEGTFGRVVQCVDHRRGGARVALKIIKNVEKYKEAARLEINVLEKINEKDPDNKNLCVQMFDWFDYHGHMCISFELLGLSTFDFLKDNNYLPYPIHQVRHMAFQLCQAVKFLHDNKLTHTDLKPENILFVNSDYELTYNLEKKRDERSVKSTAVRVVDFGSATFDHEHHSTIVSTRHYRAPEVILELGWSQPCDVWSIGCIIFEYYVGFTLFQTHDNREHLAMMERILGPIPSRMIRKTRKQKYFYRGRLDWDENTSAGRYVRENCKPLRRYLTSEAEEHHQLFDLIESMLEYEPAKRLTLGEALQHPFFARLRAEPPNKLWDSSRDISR

Compound	tested on	assay	test system	conditions	how to read	endpoint	value
NCCc1c[nH]c2ccccc12	NMT from Rhinella marina			10 min, 30 °C		Km	96.3 ± 12.8 µM
O=C1c2ccccc2C(=O)C1c1ccccc1	Bile acid receptor (NR1H4, Homo sapiens, UniProt Q96RI1)		cells	concentration not given		activity	inactive
Nc1c2c(nc3sc4c(c13)CCCC4)CCCC2	Glideosome-associated protein 50 (GAP50, Plasmodium falciparum, UniProt Q8I2X3)	binding, surface plasmon resonance		1:1 binding model		koff	1.84 s⁻¹
Cc1cccc(C(=O)N2CCN(Cc3cccc(NC(=O)c4cccs4)c3)CC2)c1.O=C(O)C(F)(F)F	PFF0160c E182D	enzyme activity, DCIP colorimetric			relative to: E182D mutant over wild type	IC50 ratio	2.7
CN(CC(=O)O)C(=N)NP(=O)(O)O	Creatine kinase U-type, mitochondrial (CKMT1A, Homo sapiens, UniProt P12532, D359N)	substrate, Kinase-Glo luminescence		pH 7.0, reverse reaction, D321N mutant, together with: second substrate in excess		Km	90 ± 10 µM
O=C(c1ccc(Cl)cc1)N1CCN2C(=O)N(OC(=O)N3CCOc4ccccc43)C(=O)C2C1 (stereo not shown)	Phospholipase A1 member A (PLA1A, Homo sapiens, UniProt Q53H76)	enzyme activity, inhibitor, MS-based ABPP	SW-620 conditioned medium	10 µM, 1 h, 37 °C	relative to: compound over DMSO, lower = stronger inhibition	median ratio	0.7
CC[C@H](C)[C@H](NC(=O)CNC(=O)[C@@H](N)CCCCN)C(=O)N[C@@H](CC(C)C)C(=O)N[C@@H](CCCCN)C(=O)N[C@@H](CCCNC(=N)N)C(=O)N[C@@H](CCC(=O)O)C(=O)N[C@@H](CCCCN)C(=O)N[C@@H](CCCNC(=N)N)C(=O)N[C@@H](CC(C)C)C(=O)N[C@@H](CCCNC(=N)N)C(=O)N[C@@H](CCCNC(=N)N)C(=O)N[C@@H](CCCCN)C(=O)N[C@@H](CC(N)=O)C(=O)N[C@H](C(=O)N[C@@H](Cc1c[nH]cn1)C(=O)N[C@@H](Cc1c[nH]c2ccccc12)C(=O)N1CCC[C@H]1C(=O)N[C@@H](CCC(=O)O)C(=O)N[C@@H](CCC(=O)O)C(=O)NCC(=O)N[C@@H](CCCCN)C(=O)N[C@@H](CC(C)C)C(=O)N[C@@H](CCCNC(=N)N)C(=O)N[C@@H](CCC(=O)O)C(=O)N[C@@H](Cc1ccc(O)cc1)C(=O)N[C@@H](Cc1ccccc1)C(=O)N[C@@H](Cc1ccc(O)cc1)C(=O)N[C@@H](Cc1ccccc1)C(=O)N[C@@H](CCC(=O)O)C(=O)N[C@@H](CC(C)C)C(=O)N[C@@H](CC(=O)O)C(=O)N[C@@H](CCC(=O)O)C(=O)N[C@@H](C)C(=O)N[C@@H](CCC(=O)O)C(=O)N[C@@H](CCCNC(=N)N)C(=O)N[C@H](C(=O)N[C@@H](CC(N)=O)C(=O)N[C@H](C(=O)O)C(C)C)C(C)C)C(C)C	protein phosphatase 1 complexes	bead binding, competitive inhibitor, inhibitor bead pulldown LC-MS/MS, refers to: URI1	HeLa and HEK293T cells, cell lysate	concentration not given	relative to: compound over control	log2 fold change	-7.45
COc1ccc2c3c([nH]c2c1)CCN(C)CC3.O=C(O)/C=C/C(=O)O	Neuronal acetylcholine receptor; alpha9/alpha10 (Homo sapiens, UniProt Q9GZZ6+Q9UGM1)	ion current, inhibitor, two-electrode voltage clamp	Xenopus laevis oocytes	3 µM, human receptor, together with: acetylcholine 6 µM		recovery time constant	9.6 ± 0.3 s
C[C@H]1CN(c2n[nH]c3nc(N[C@H]4CC[C@H](NS(=O)(=O)CCC(F)(F)F)CC4)ncc23)CCO1	Dual specificity protein kinase CLK2 (CLK2, Homo sapiens, UniProt P49760)	inhibitor, Kinobeads competition profiling		0.8 µM	relative to: vehicle	relative abundance	1.28
COc1ccc(-n2ccnc2SCC(=O)Nc2cc(C)ccc2C)c(OC)c1	PFF0160c E182D	enzyme activity, DCIP colorimetric			relative to: E182D mutant over wild type	IC50 ratio	3.5
Clc1ccc(-c2ccccc2Cl)cc1	Aryl hydrocarbon receptor (AHR, Homo sapiens, UniProt P35869)	reporter gene, antagonist	AZ-AHR cells	24 h, together with: TCDD 4.5 nM		IC25	14 µM
CC12CCC(CC1)C(C)(C)O2	1,8-cineole 2-endo-monooxygenase (cinA, Citrobacter braakii, UniProt Q8VQF6, N242A)	NADPH turnover		concentration not given, N242A mutant	relative to: wild type	relative activity	~30%
COc1cc(N)c(Cl)cc1C(=O)NC1CN2CCC1CC2 (stereo not shown)	Opsin-5 (OPN5, Homo sapiens, UniProt Q6U736)	β-arrestin recruitment, TANGO luminescence, refers to: OPN5		concentration not given	relative to: basal luminescence	log2 fold change	0.052
Cc1cn([C@H]2C[C@H](O)[C@@H](COP(=O)(O)OP(=O)(O)OP(=O)(O)O)O2)c(=O)[nH]c1=O	DNA polymerase I, Klenow fragment (polA, Escherichia coli, UniProt P00582, C907S/D424A/L744C/Y766F)	nucleotide incorporation, substrate, single-turnover rapid quench		together with: radiolabelled primer-template DNA		maximum incorporation rate	50 ± 3 s⁻¹
COc1cc(Nc2ncc(F)c(Nc3ccc4c(n3)NC(=O)C(C)(C)O4)n2)cc(OC)c1OC	Alpha-2B adrenergic receptor (ADRA2B, Homo sapiens, UniProt P18089)					IC50	> 10 µM
Nc1ncnc2c1ncn2[C@@H]1O[C@H](COP(=O)(O)OP(=O)(O)O)[C@@H](O)[C@H]1O	Cell cycle histidine kinase CckA, cytoplasmic region (Caulobacter vibrioides, UniProt Q9X688)	isothermal titration calorimetry		concentration not given, 25 °C, together with: c-di-GMP 100 µM		effective binding enthalpy (ΔH)	~0.3 kcal/mol
COc1ccc(C(CN(C)C)C2(O)CCCCC2)cc1 (stereo not shown)	Nuclear receptor subfamily 2 group C member 2, ligand-binding domain (Homo sapiens, UniProt P49116)	SPR imaging		600 nM		koff	7.25e-05 s⁻¹

Compound	tested on	assay	test system	conditions	how to read	endpoint	value
CC[C@H](C)[C@@H]1NC(=O)[C@@H]2CCCN2C(=O)[C@H](CC(C)C)NC(=O)[C@H](CC(C)C)NC(=O)CNC(=O)[C@@H](NC(=O)[C@@H](NC(=O)[C@H](CC(=O)O)NC(=O)CNC(=O)[C@@H](NC(=O)[C@H](C)NC(=O)CNC(=O)[C@H](CCCCN)NC(=O)[C@H](CC(C)C)NC(=O)[C@H](CC(C)C)NC(=O)[C@H](CCCCN)NC(=O)CNC(=O)[C@@H](NC(=O)[C@@H](N)CC(C)C)C(C)C)C(C)C)C(C)C)CSSC[C@@H](C(=O)O)NC1=O		RNA-seq, refers to: Saa3 mRNA	mouse traumatic brain injury, frontal cortex and hippocampus	dose not given	relative to: TBI plus compound vs TBI	log2 fold change	-5.25
CC(C)[N+](C)(C)CC(O)COc1cccc2ccccc12 (stereo not shown)	ACHE		biochemical	concentration not given		activity class	inactive
COC(=O)[C@@]1(O)C[C@H]2O[C@]1(C)n1c3ccccc3c3c4c(c5c6ccccc6n2c5c31)C(=O)NC4	Mitogen-activated protein kinase 3 (MAPK3, Homo sapiens, UniProt P27361)	ADP-Glo		2.04 µM, together with: MBP substrate		kinase activity	99.7% and 106% and 110%
C[n+]1cn([C@@H]2O[C@H](COP(=O)([O-])OP(=O)(O)OP(=O)(O)OC[C@H]3O[C@@H](n4cnc5c(=O)[nH]c(N)nc54)[C@H](O)[C@@H]3O)[C@@H](O)[C@H]2O)c2nc(N)[nH]c(=O)c21	m7GpppX diphosphatase (DCS1, Saccharomyces cerevisiae, UniProt Q06151, H268N/K126A)	binding, ITC				ΔH second site	-21.3 kcal/mol
N=C(N)NCCC[C@@H]1NC(=O)[C@H](CCCCNC(=O)c2ccc(CNC34CNCCNCC(N)(CNCCNC3)CNCCNC4)cc2)NC(=O)[C@@H](Cc2ccc(O)cc2)NC(=O)[C@H](CC(=O)O)NC(=O)CNC1=O [copper-64 labelled]		microPET	male athymic nude mouse, PC-3 tumour, muscle	intravenous, 7.4 MBq, 48 h		tissue uptake	0.14 ± 0.02 %ID/g
COc1cccc2c1C(=O)c1c(O)c3c(c(O)c1C2=O)C[C@@](O)(C(=O)CO)C[C@@H]3O[C@H]1C[C@H](NC(=O)[C@@H]2CCCN2C(=O)CNC(=O)[C@H](CC(C)C)NC(=O)[C@H](C)NC(=O)CP(=O)(O)O)[C@H](O)[C@H](C)O1			healthy mice, plasma	intravenous, 94.4 mg/kg, extrapolated to time zero		Cmax	701 µM
CC1CN(Cc2ccc(-c3ccc(C(=O)NCC4CCCO4)cn3)cc2)CC(C)O1.O=C(O)C(F)(F)F.O=C(O)C(F)(F)F (stereo not shown)	PFF0160c E182D	enzyme activity, DCIP colorimetric			relative to: E182D mutant over wild type	IC50 ratio	0.7
O=C(O)COP(=O)(O)O	TPI1 (Saccharomyces cerevisiae, UniProt P00942, Y208T)	enzyme activity, competitive inhibitor, GPDH/NADH-coupled		pH 8.3, 25 °C, ionic strength 0.1 NaCl, together with: glyceraldehyde 3-phosphate substrate	relative to: mutant over wild type	Ki ratio	7.5
O=C(Nc1cccc(CN2CCN(C(=O)c3ccccc3)CC2)c1)c1cccs1.O=C(O)C(F)(F)F	PFF0160c E182D	enzyme activity, DCIP colorimetric			relative to: E182D mutant over wild type	IC50 ratio	4.9
COCC(=O)O[C@]1(CCN(C)CCCc2nc3ccccc3[nH]2)CCc2cc(F)ccc2[C@@H]1C(C)C	ACHE		biochemical	concentration not given		activity class	inactive
CN1CCN(c2cc(-c3ccncc3)c(-c3ccc4ccccc4c3)nn2)CC1	5-hydroxytryptamine receptor 6 (HTR6, Homo sapiens, UniProt P50406)	agonist, FLIPR		12.5 µM		activation	-3.6%
[2H]c1c([2H])c([C@]2([2H])CCCN2C(=O)C(C)(C)Oc2ccc3cn[nH]c3c2)c([2H])c([2H])c1C([2H])([2H])[2H]	Serine/threonine-protein kinase STK11 (STK11, Homo sapiens, UniProt Q15831)	KINOMEscan		1 µM	relative to: DMSO control	remaining binding	86%
Nc1ncc(-c2nc(N3CCOCC3)nc(N3CCOCC3)n2)c(C(F)F)n1	Mast/stem cell growth factor receptor Kit (KIT, Homo sapiens, UniProt P10721)	KINOMEscan		10 µM		remaining binding	20%
CCNC(=O)c1ccc(-n2nc(C)cc2-c2ccccc2)cc1	PFF0160c E182D	enzyme activity, DCIP colorimetric			relative to: E182D mutant over wild type	IC50 ratio	2.4
COc1ccc(N2C(=O)N(c3c(C)cccc3Cl)Cc3cnc(Nc4ccc(C5CCN(C)CC5)cc4OC)nc32)nc1	Tyrosine-protein kinase Srms (SRMS, Homo sapiens, UniProt Q9H3Y6)	kinase activity		0.5 µM		inhibition	53%
COc1cc(C(=O)N2CC[C@@H](O)[C@@H](N)C2)cc2nc(-c3cc4ccccc4n3CC3CC3)n(C)c12	Protein-arginine deiminase type-1 (PADI1, Homo sapiens, UniProt Q9ULC6)	enzyme activity, cell lysate	HEK293 expressing PADI1	100 µM, together with: calcium 2 mM		citrullination	no effect
CC[C@@H](C)[C@@H](NC(=O)[C@@H](Cc1ccc(O)cc1)NC(=O)[C@H]1CCCN1C(=O)[C@@H](CCCNC(=N)N)NC(=O)[C@H](N)Cc1c[nH]cn1)C(=O)N[C@H](C)C(=O)N[C@H](Cc1c[nH]cn1)C(=O)N[C@H](CCCNC(=N)N)C(=O)N[C@H](CCCCNC(=O)c1cccc(S(=O)(=O)F)c1)C(=O)N[C@H](Cc1ccc(O)cc1)C(=O)N[C@H](CO)C(=O)N[C@H](Cc1ccccc1)C(N)=O	Transferrin receptor protein 1 (Tfrc, Mus musculus, UniProt Q62351)	flow cytometry	MC-38	24 h, unit not given	relative to: 0 h	surface TFRC expression	0.916

For quick reference, copied from above:
Compound	tested on	assay	test system	conditions	how to read	endpoint	value
Cc1cn([C@H]2C[C@H](O)[C@@H](COP(=O)(O)OP(=O)(O)OP(=O)(O)O)O2)c(=O)[nH]c1=O	DNA polymerase I, Klenow fragment (polA, Escherichia coli, UniProt P00582, C907S/D424A/L744C/Y766F)	nucleotide incorporation, substrate, single-turnover rapid quench		together with: radiolabelled primer-template DNA		maximum incorporation rate	50 ± 3 s⁻¹
COc1cc(Nc2ncc(F)c(Nc3ccc4c(n3)NC(=O)C(C)(C)O4)n2)cc(OC)c1OC	Alpha-2B adrenergic receptor (ADRA2B, Homo sapiens, UniProt P18089)					IC50	> 10 µM
Nc1ncnc2c1ncn2[C@@H]1O[C@H](COP(=O)(O)OP(=O)(O)O)[C@@H](O)[C@H]1O	Cell cycle histidine kinase CckA, cytoplasmic region (Caulobacter vibrioides, UniProt Q9X688)	isothermal titration calorimetry		concentration not given, 25 °C, together with: c-di-GMP 100 µM		effective binding enthalpy (ΔH)	~0.3 kcal/mol
